{"data": "Experimental data pooled from the literature", "ATRX F284Y/K251R": "Transcriptional regulator ATRX (ATRX, Homo sapiens, UniProt P46100, F284Y/K251R)", "HTR1A": "5-hydroxytryptamine receptor 1A (HTR1A, Homo sapiens, UniProt P08908)", "CBK1": "Serine/threonine-protein kinase CBK1 (CBK1, Candida albicans, UniProt Q5AP53)", "DCAF1": "DDB1- and CUL4-associated factor 1 (DCAF1, Homo sapiens, UniProt Q9Y4B6)", "Pancreatic alpha-amylase": "Pancreatic alpha-amylase (Homo sapiens, UniProt P04746)", "Nuclear receptor subfamily 2 group C member 2 ligand-binding domain": "Nuclear receptor subfamily 2 group C member 2, ligand-binding domain (Homo sapiens, UniProt P49116)", "note": "“And” joins repeats or separate records; there may be more than shown. ± marks the error that the study gave.", "chain of UniProt Q16774 (whole entry, looked up)": "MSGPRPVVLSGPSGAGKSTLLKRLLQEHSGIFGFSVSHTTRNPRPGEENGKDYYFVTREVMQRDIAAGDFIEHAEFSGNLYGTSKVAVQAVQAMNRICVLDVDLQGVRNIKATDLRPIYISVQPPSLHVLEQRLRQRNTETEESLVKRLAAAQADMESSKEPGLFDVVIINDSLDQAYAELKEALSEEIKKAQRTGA", "chain of UniProt Q9Y4B6 (whole entry, looked up)": "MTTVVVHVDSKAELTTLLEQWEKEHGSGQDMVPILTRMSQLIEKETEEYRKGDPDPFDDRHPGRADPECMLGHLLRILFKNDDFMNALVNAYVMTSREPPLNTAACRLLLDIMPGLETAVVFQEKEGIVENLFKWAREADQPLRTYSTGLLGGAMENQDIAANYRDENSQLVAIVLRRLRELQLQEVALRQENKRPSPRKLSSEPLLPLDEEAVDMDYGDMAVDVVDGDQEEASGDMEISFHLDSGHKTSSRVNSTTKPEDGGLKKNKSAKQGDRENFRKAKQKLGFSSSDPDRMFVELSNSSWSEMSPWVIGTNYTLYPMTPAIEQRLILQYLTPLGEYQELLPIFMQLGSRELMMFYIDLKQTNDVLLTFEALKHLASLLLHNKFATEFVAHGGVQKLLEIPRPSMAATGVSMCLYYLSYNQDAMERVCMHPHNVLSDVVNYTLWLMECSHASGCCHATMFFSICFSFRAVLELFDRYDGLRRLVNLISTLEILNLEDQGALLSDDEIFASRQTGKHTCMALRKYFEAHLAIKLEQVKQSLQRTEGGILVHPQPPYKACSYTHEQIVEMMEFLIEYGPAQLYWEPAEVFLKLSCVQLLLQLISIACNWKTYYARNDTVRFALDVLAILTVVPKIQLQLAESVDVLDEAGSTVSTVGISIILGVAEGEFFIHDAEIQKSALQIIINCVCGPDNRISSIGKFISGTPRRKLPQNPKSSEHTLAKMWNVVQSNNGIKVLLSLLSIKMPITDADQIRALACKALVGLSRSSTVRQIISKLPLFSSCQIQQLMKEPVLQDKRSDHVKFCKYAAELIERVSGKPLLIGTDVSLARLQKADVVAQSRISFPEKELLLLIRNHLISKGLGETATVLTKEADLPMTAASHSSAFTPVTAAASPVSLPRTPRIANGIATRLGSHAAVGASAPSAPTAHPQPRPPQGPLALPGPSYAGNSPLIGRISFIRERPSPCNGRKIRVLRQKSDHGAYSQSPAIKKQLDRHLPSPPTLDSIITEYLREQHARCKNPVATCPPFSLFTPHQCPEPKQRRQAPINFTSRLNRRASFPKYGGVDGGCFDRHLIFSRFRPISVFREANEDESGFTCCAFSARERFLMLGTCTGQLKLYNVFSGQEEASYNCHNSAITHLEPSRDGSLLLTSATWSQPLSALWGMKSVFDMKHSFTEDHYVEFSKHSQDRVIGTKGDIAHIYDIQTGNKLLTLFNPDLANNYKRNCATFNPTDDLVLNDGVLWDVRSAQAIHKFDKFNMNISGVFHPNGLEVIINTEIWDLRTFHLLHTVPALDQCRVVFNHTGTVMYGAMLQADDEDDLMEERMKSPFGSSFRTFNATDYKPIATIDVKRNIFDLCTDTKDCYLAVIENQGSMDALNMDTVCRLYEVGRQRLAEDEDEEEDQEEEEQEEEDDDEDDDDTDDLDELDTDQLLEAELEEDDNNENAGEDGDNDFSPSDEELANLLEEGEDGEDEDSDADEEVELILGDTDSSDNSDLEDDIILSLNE", "chain of UniProt P49116 (whole entry, looked up)": "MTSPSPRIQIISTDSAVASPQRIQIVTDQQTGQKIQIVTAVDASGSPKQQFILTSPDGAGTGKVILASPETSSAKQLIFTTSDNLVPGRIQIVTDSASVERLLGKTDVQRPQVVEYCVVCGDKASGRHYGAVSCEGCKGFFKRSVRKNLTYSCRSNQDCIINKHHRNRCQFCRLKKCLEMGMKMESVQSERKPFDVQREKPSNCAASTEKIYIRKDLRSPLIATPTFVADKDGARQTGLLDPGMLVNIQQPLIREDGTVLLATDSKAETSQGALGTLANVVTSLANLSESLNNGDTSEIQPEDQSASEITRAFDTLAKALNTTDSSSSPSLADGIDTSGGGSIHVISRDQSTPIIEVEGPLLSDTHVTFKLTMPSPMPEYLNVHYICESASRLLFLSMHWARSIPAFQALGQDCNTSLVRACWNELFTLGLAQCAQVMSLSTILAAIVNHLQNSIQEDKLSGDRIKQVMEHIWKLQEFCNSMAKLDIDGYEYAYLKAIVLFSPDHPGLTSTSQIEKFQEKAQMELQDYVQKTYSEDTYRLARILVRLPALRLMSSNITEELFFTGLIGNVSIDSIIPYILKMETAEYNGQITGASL", "chain of UniProt O14980 (whole entry, looked up)": "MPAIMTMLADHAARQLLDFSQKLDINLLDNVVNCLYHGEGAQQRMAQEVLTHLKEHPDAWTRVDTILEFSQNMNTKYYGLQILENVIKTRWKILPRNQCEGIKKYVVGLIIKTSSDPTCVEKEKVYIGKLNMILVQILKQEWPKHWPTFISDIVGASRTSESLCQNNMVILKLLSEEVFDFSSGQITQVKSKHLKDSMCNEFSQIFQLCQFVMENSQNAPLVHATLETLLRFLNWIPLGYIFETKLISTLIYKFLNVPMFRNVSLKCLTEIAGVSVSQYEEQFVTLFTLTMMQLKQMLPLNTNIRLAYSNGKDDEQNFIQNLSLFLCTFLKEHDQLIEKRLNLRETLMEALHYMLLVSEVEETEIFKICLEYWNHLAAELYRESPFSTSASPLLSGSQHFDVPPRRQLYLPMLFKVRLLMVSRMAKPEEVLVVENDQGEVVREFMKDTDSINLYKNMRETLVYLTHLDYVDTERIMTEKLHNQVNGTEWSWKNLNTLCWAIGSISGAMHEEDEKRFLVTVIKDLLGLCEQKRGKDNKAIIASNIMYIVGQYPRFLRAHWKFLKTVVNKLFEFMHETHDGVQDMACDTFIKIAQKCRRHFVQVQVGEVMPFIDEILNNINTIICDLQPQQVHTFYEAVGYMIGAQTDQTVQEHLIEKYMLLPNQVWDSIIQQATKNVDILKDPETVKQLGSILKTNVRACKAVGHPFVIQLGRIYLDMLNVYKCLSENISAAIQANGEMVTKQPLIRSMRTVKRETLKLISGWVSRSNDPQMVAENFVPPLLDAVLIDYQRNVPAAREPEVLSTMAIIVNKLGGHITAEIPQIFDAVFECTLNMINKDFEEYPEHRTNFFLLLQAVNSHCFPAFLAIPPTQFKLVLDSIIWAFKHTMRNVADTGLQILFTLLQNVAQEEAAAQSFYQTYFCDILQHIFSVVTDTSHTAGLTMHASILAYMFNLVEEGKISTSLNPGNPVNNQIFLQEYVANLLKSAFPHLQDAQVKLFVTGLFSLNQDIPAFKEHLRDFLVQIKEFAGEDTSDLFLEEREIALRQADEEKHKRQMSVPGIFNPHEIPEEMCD", "chain of UniProt P51575 (whole entry, unmodified, looked up)": "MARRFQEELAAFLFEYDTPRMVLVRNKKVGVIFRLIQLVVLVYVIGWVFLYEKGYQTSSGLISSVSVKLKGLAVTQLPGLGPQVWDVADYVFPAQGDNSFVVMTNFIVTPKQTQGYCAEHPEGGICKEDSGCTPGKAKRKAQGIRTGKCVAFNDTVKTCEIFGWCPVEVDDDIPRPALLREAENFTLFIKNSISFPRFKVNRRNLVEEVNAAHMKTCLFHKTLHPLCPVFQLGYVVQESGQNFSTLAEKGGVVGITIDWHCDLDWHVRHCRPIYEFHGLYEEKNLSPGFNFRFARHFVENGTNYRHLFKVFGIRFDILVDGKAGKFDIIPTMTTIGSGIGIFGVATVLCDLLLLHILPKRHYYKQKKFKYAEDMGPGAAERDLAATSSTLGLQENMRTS", "chain of UniProt P04746 (whole entry, looked up)": "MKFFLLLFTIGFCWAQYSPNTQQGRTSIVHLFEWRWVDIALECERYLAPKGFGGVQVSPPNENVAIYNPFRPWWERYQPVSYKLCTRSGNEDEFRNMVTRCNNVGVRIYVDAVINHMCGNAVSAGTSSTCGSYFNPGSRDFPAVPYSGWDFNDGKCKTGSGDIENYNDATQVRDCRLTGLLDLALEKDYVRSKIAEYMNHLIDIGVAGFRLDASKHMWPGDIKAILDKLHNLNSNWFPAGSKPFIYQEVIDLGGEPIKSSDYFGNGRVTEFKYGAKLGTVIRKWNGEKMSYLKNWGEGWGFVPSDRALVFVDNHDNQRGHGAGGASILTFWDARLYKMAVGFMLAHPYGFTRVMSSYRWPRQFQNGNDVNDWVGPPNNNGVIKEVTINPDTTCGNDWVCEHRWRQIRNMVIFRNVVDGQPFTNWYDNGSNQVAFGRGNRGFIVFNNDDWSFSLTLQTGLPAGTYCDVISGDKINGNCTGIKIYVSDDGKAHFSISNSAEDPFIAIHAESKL", "chain of UniProt Q5AP53 (whole entry, looked up)": "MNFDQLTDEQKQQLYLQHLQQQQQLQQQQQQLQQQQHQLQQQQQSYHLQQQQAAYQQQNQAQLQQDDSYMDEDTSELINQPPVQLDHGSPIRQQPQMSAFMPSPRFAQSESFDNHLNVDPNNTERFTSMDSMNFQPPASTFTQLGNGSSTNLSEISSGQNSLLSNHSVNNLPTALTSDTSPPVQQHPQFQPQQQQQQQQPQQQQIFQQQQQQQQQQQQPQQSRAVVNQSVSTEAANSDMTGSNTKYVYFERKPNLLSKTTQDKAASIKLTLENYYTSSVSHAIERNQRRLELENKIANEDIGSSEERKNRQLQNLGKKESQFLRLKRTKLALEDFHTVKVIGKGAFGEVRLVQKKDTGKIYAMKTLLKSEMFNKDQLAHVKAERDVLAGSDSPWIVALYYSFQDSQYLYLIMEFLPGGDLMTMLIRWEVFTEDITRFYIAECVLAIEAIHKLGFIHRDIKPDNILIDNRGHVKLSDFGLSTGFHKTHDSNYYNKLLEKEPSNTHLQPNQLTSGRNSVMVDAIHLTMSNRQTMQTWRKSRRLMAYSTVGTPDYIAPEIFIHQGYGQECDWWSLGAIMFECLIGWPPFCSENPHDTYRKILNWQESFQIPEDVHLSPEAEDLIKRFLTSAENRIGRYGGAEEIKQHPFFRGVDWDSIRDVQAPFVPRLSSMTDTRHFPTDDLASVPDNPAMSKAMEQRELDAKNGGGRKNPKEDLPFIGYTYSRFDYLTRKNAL"}
{"SMILES": "Clc1cncc(OC[C@@H]2CN(CCN3CCc4ccccc43)CCO2)c1", "tested on": "DRD5 (Homo sapiens, UniProt P21918)", "test": "radioligand binding", "setting": "concentration not given, added: [3H]SCH23390", "endpoint": "inhibition", "value": "33.7%"}
{"SMILES": "O=C(/C=C\\n1cnc(-c2cc(C(F)(F)F)cc(C(F)(F)F)c2)n1)NNc1cnccn1", "tested on": "Exportin-1 (XPO1, Homo sapiens, UniProt O14980)", "test": "nuclear export, high content imaging", "system": "HeLa Kyoto reporter", "setting": "1 µM, 2 h", "endpoint": "cells with nuclear reporter", "value": "96.8% and 97.1%"}
{"SMILES": "C[C@H](N)C(=O)N[C@@H](CCCNC(=N)N(C)C)C(=O)N[C@H](C(=O)N[C@@H](CCCCN)C(=O)N[C@@H](CCC(N)=O)C(=O)N[C@H](C(=O)N[C@@H](C)C(=O)N[C@@H](CCCNC(=N)N)C(=O)N[C@@H](CCCCN)C(=O)N[C@@H](CO)C(=O)O)[C@@H](C)O)[C@@H](C)O", "tested on": "ATRX F284Y/K251R", "test": "isothermal titration calorimetry", "setting": "pH 7.5, 25.0 °C", "endpoint": "binding free energy", "value": "-6.98 kcal/mol"}
{"SMILES": "Cn1cc(-c2ccc(-c3cncc(Cl)c3N3CCC4(CCNC4=O)CC3)cc2)cn1", "tested on": "COLO 205", "test": "gene expression, microarray, item: PLAUR mRNA", "setting": "concentration not given, 6 h", "how to read": "relative to: untreated cells", "endpoint": "log2 fold change", "value": 1.71}
{"SMILES": "CC1Cc2ccccc2N1C(=O)NCCCCN(C)[C@@H]1Cc2cccc3[nH]c(=O)n(c23)C1 (mixture of isomers)", "tested on": "HTR1A", "test": "binding", "setting": "added: [3H]8-OH-DPAT", "endpoint": "Hill coefficient", "value": "-0.48 ± 0.01"}
{"SMILES": "Oc1ccccc1-c1n[nH]cc1-c1ccnc2ccccc12", "tested on": "CBK1", "test": "kinase binding, MIB/MS competition", "system": "Candida albicans lysate", "setting": "10 µM", "how to read": "relative to: DMSO, negative = stronger binding", "endpoint": "log2 fold change", "value": 0.05}
{"SMILES": "Nc1ncnc2c1ncn2[C@@H]1O[C@H](COP(=O)(O)CP(=O)(O)OP(=O)(O)O)[C@@H](O)[C@H]1O", "tested on": "P2X purinoceptor 1 (P2RX1, Homo sapiens, UniProt P51575, R292A)", "test": "calcium influx", "setting": "10 nM", "how to read": "relative to: ionomycin response", "endpoint": "calcium influx", "value": "0.434% and 1.91%"}
{"SMILES": "CC(Oc1ccccc1)C(=O)NCc1ccccn1 (centres unmarked)", "tested on": "DCAF1", "test": "binding, affinity selection mass spectrometry", "how to read": "relative to: other proteins in batch", "endpoint": "fold enrichment", "value": 0.711}
{"SMILES": "O=C(O)c1cc(O)c2c(c1)C(=O)c1cccc(O[C@@H]3O[C@H](CO)[C@@H](O)[C@H](O)[C@H]3O)c1C2=O", "tested on": "HepaRG co-cultured with HK-2", "test": "MTT", "setting": "133.33 µM, 48 h", "how to read": "relative to: untreated control", "endpoint": "cell viability", "value": "58 ± 5.11%"}
{"SMILES": "CN=C(NC)NCCC[C@H](NC(=O)[C@H](C)N)C(=O)N[C@H](C(=O)N[C@@H](CCCCN)C(=O)N[C@@H](CCC(N)=O)C(=O)N[C@H](C(=O)N[C@@H](C)C(=O)N[C@@H](CCCNC(=N)N)C(=O)N[C@@H](CCCCN)C(=O)N[C@@H](CO)C(=O)O)[C@@H](C)O)[C@@H](C)O", "tested on": "ATRX F284Y/K251R", "test": "isothermal titration calorimetry", "setting": "concentration not given, pH 7.5, 25.0 °C", "endpoint": "binding entropy", "value": "8.33 cal/mol/K"}
{"SMILES": "COc1cc(-c2cncc3c2CN(C)Cc2cc(N4CCNCC4)ccc2-3)cc(OC)c1OC", "tested on": "DDR1 (Homo sapiens, UniProt Q08345)", "test": "kinase activity", "setting": "1 µM, human enzyme, added: ATP 10 µM", "how to read": "relative to: DMSO control", "endpoint": "remaining activity", "value": "29%"}
{"SMILES": "COC1=C(OC)C(=O)C(CC=C(C)C)=C(C)C1=O", "tested on": "FSP1 F15A mutant", "test": "substrate", "setting": "added: 100 µM co-substrate", "endpoint": "Km", "value": "9.48 ± 2.55 µM"}
{"SMILES": "CC1(C)CC2(C)OC(=O)NC2(C)c2ccccc21 (centres unmarked)", "tested on": "E3 SUMO-protein ligase PIAS1 (PIAS1, Homo sapiens, UniProt O75925)", "test": "binding, affinity selection mass spectrometry", "how to read": "relative to: other proteins in batch", "endpoint": "fold enrichment", "value": 1.32}
{"SMILES": "CN(C(=O)C(C)(C)c1cc(C(F)(F)F)cc(C(F)(F)F)c1)c1cnc(N2C[C@H]3COCCN3C[C@H]2CO)cc1-c1ccc(F)cc1[14CH3]", "test": "substrate, item: M30/34 formation", "system": "human liver microsomes", "endpoint": "Vmax", "value": "282 pmol/min/mg"}
{"SMILES": "CCCC[C@H]1CN(c2cccc(OC(F)(F)F)c2)C(=O)CN1Cc1cncn1Cc1ccccc1", "tested on": "Cryptococcus neoformans farnesyltransferase", "test": "enzyme activity, inhibitor, fluorescence", "setting": "added: 1 µM FPP, 0.5 µM dansylated peptide", "endpoint": "IC50", "value": "1900 ± 1700 nM"}
{"SMILES": "Nc1ncnc2c1ncn2[C@@H]1O[C@H](COP(=O)(O)OP(=O)(O)OP(=O)(O)O)[C@@H](O)[C@H]1O", "tested on": "ATP-sensitive inward rectifier potassium channel 1 (Rattus norvegicus, UniProt P35560)", "test": "inside-out patch clamp", "system": "renal principal cells, rat", "setting": "added: 20 µM free Mg2+", "endpoint": "concentration for full channel block", "value": "3 to 3.5 mM"}
{"SMILES": "Cc1cc(O)c2c(c1)C(=O)c1cc(O)cc(O)c1C2=O", "tested on": "HepaRG co-cultured with HK-2", "test": "MTT", "setting": "33.33 µM, 48 h", "how to read": "relative to: untreated control", "endpoint": "cell viability", "value": "46.2 ± 3.94%"}
{"SMILES": "COc1cccc(OC[C@@H]2CN(CC(=O)N3CCc4ccccc43)CCO2)c1", "tested on": "HTR1A", "test": "radioligand binding", "setting": "concentration not given, added: [3H]8-OH-DPAT", "endpoint": "inhibition", "value": "91.3%"}
{"SMILES": "CCn1c2c(c(=O)[nH]c1=O)C1C(=C(C)N2)C(=O)NCc2ccccc2OCCCOc2ccccc21 (centres unmarked)", "tested on": "Bromodomain testis-specific protein, BD1 (BRDT, Homo sapiens, UniProt Q58F21)", "test": "fluorescence polarization", "setting": "concentration not given", "endpoint": "binding affinity", "value": "inactive"}
{"SMILES": "Nc1nc2c(ncn2[C@@H]2O[C@H](COP(=O)(O)O)[C@@H](O)[C@H]2O)c(=O)[nH]1", "tested on": "GUK1 (Homo sapiens, UniProt Q16774)", "test": "enzyme activity, NADH-coupled", "setting": "2000 µM, added: KCl 10 mM", "endpoint": "reaction velocity", "value": "0.126 µM/s and 0.143 µM/s and 0.115 µM/s"}
{"SMILES": "CC(C)C[C@H](NC(=O)C[C@H](O)[C@H](CC(C)C)NC(=O)[C@H](Cc1c[nH]cn1)NC(=O)CNC(=O)[C@@H](NC(=O)[C@H](C)NC(=O)[C@H](Cc1c[nH]c2ccccc12)NC(=O)[C@H](CCC(N)=O)NC(=O)[C@@H](Cc1ccccc1)NC(=O)COCCOCCNC(=O)CCC(C(=O)O)N1CCN(CC(=O)O)CCN(CC(=O)O)CCN(CC(=O)O)CC1)C(C)C)C(N)=O (some centres unmarked) [lutetium-177 labelled]", "system": "BALB/c nu/nu mice, heart", "setting": "intravenous, 750 pmol, 1 h, added: PA 300 µg", "endpoint": "tissue uptake", "value": "0.19 ± 0.05 %ID/g"}
{"SMILES": "O=C1OC(c2ccccc2)=N/C1=C\\c1ccccc1O", "tested on": "Pancreatic alpha-amylase", "test": "inhibitor, Lineweaver-Burk", "setting": "100 ppm, added: starch substrate", "endpoint": "Vmax", "value": "0.06 mg/mL/min"}
{"SMILES": "C[C@@H](c1ccc(-n2cnc3c(N)ncnc32)cc1)N1CCc2nn(C)c(Cc3ccccc3)c2C1=O", "tested on": "EGFR (Homo sapiens, UniProt P00533, G719C)", "test": "KINOMEscan", "setting": "0.1 µM", "how to read": "relative to: DMSO control", "endpoint": "remaining binding", "value": "88%"}
{"SMILES": "Cc1n[nH]c2ccc(-c3cc(OC[C@@H](N)Cc4ccccc4)cnc3-c3ccoc3)cc12", "tested on": "CBK1", "test": "kinase binding, competitor, MIB/MS competition, item: CBK1", "system": "Candida albicans cell lysate", "setting": "100 nM", "how to read": "relative to: DMSO", "endpoint": "log2 fold change", "value": 0.0978}
{"SMILES": "O=S(=O)(O)C1CCNCC1", "tested on": "SLC6A6 (Homo sapiens, UniProt P31641, G62A)", "test": "binding, microscale thermophoresis", "setting": "62.5 µM, room temperature, added: 50 nM labelled protein", "how to read": "higher = more binding", "endpoint": "normalised MST signal", "value": -0.0712}
{"SMILES": "CCCCC[C@H](O)/C=C/[C@H]1[C@H](O)CC(=O)[C@@H]1C/C=C\\CCCC(=O)O", "tested on": "PTGER1 (Homo sapiens, UniProt P34995, T186A)", "test": "IP1 accumulation, agonist", "system": "AD293", "setting": "1 h, EP1 T186A mutant", "endpoint": "Emax", "value": "82.8 ± 6.75%"}
{"SMILES": "Cc1cccc(N2CC(C(=O)O)CC2=O)c1 (centres unmarked)", "tested on": "DCAF1", "test": "binding, affinity selection mass spectrometry", "how to read": "relative to: other proteins in batch", "endpoint": "fold enrichment", "value": 0.896}
{"SMILES": "CCN1CCC[C@H]1CNC(=O)c1c(O)c(Cl)cc(Cl)c1OC", "tested on": "G-protein coupled receptor 87 (GPR87, Homo sapiens, UniProt Q9BY21)", "test": "β-arrestin recruitment, TANGO luminescence, item: GPR87", "setting": "concentration not given", "how to read": "relative to: basal luminescence", "endpoint": "log2 fold change", "value": -0.074}
{"SMILES": "Cc1cccc(Nc2ccccc2C(=O)O)c1C", "tested on": "Nuclear receptor subfamily 2 group C member 2 ligand-binding domain", "test": "SPR imaging", "setting": "600 nM", "endpoint": "koff", "value": "1.96e-07 s⁻¹"}
{"SMILES": "O=C(O)C[C@H](O)C[C@H](O)/C=C/c1c(C2CC2)nc2ccccc2c1-c1ccc(F)cc1", "tested on": "COS-7", "test": "WST-8", "setting": "3 µM, 24 h, 0.1% DMSO, unit not given", "how to read": "relative to: vehicle control", "endpoint": "metabolic activity", "value": "0.91 ± 0.09"}
{"SMILES": "CCS(=O)(=O)N1CC(CC#N)(n2cc(-c3ncnc4[nH]ccc34)cn2)C1", "tested on": "ORM1 (Homo sapiens, UniProt P02763)", "test": "van't Hoff", "setting": "concentration not given, 293-308 K", "endpoint": "binding enthalpy change", "value": "-4.44 kcal/mol"}
{"SMILES": "O=C1OC(c2ccccc2)=N/C1=C\\c1ccccc1", "tested on": "Pancreatic alpha-amylase", "test": "inhibitor, Lineweaver-Burk", "setting": "300 ppm, added: starch substrate", "endpoint": "Vmax", "value": "0.059 mg/mL/min"}
{"SMILES": "O=C(O)CCc1nc(-c2ccccc2)c(-c2ccccc2)o1", "tested on": "COS-7", "test": "WST-8", "setting": "100 µM, 24 h, 0.1% DMSO, unit not given", "how to read": "relative to: control", "endpoint": "metabolic activity", "value": "0.85 ± 0.1"}
{"SMILES": "CCOc1ccc2ccccc2c1C(=O)N[C@@H]1C(=O)N2[C@@H]1SC(C)(C)[C@@H]2C(=O)O", "tested on": "Nuclear receptor subfamily 2 group C member 2 ligand-binding domain", "test": "SPR imaging", "setting": "600 nM", "endpoint": "koff", "value": "8.88e-07 s⁻¹"}
{"SMILES": "CC[C@@H]1[C@H](F)C(=O)N[C@@H]1COc1nccc2cc(C(N)=O)c(OC)cc12", "tested on": "CDK14 (Homo sapiens, UniProt O94921)", "test": "ATP probe binding, KiNativ profiling, item: Lys2 probe site", "system": "THP-1 cell lysate", "setting": "0.01 mM", "endpoint": "inhibition", "value": "-16.8%"}
